# Results gathered from unrelated publications.
# Each line is one published result; not all experiments were run side by side. ± marks the error that the study gave.
Molecule,cell line,test,test system,setting,scale,endpoint,value
CNC(=O)c1cccc2cc(Oc3ccnc4cc(OCC5(N)CC5)c(OC)cc34)ccc12,NCI-H1581,"inhibitor, Western blot",,"2 h, serum starved",,lowest effective concentration,≥ 100 nM
O=C1/C(=C/c2ccc(O)c(Br)c2)CN(Cc2cccc(Cl)c2)C/C1=C\c1ccc(O)c(Br)c1,LNCaP cells,"reporter gene, luciferase",,"up to 8 to 10 µM, 2 days",reference: CMV-Renilla control,PSA reporter activity,decreased
SIYNFEKL,OT-I CD8+ T cells,,peptide,"concentration not given, primed 5 d, OVA257 100 ng/mL restimulation, together with: no TGF-beta1",,IL-2+ cells,87.5%
CC(C)(N)C(=O)O,"Ehrlich ascites cells, mouse",substrate binding to Na+-carrier,,equilibrium model K2,,Kd,1230 µM
SIIVFEKL,OT-I CD8+ T cells,,peptide,"concentration not given, primed 5 d, OVA257 100 ng/mL restimulation, together with: 20 ng/mL TGF-beta1 from day 2",,TNF-alpha+ cells,27.7%
COc1cc2c(cc1OC)C1CC(=O)C(CC(C)C)CN1CC2 (centres unmarked),mouse pheochromocytoma MPC cells,,,"10 µM, 30 min preincubation, together with: 0.029 MBq/mL [18F]-DOPA 120 min",reference: control,[18F]-DOPA retention,12.1%
CC[C@H](C)[C@H](NC(=O)[C@H](CC(C)C)NC(=O)[C@@H](NC(=O)[C@@H]1CCCN1C(=O)[C@@H](NC(=O)[C@@H]1CCCN1C(=O)[C@@H](NC(=O)[C@H](CO)NC(=O)[C@H](Cc1c[nH]cn1)NC(=O)[C@@H]1CCCN1C(=O)[C@H](CCCNC(=N)N)NC(=O)[C@H](CCCCN)NC(=O)[C@H](CCCNC(=N)N)NC(=O)[C@H](CCCNC(=N)N)NC(=O)[C@H](CCCNC(=N)N)NC(=O)[C@@H]1CCCN1C(=O)[C@H](CCCNC(=N)N)NC(=O)[C@H](CC(C)C)NC(=O)[C@H](CC(C)C)NC(=O)[C@H](Cc1c[nH]cn1)NC(=O)[C@H](Cc1c[nH]cn1)NC(=O)CNC(=O)[C@@H](N)CSSC[C@H](N)C(=O)NCC(=O)N[C@@H](Cc1c[nH]cn1)C(=O)N[C@@H](Cc1c[nH]cn1)C(=O)N[C@@H](CC(C)C)C(=O)N[C@@H](CC(C)C)C(=O)N[C@@H](CCCNC(=N)N)C(=O)N1CCC[C@H]1C(=O)N[C@@H](CCCNC(=N)N)C(=O)N[C@@H](CCCNC(=N)N)C(=O)N[C@@H](CCCNC(=N)N)C(=O)N[C@@H](CCCCN)C(=O)N[C@@H](CCCNC(=N)N)C(=O)N1CCC[C@H]1C(=O)N[C@@H](Cc1c[nH]cn1)C(=O)N[C@@H](CO)C(=O)N[C@H](C(=O)N1CCC[C@H]1C(=O)N[C@H](C(=O)N1CCC[C@H]1C(=O)N[C@H](C(=O)N[C@@H](CC(C)C)C(=O)N[C@H](C(=O)N[C@@H](Cc1ccccc1)C(=O)N[C@@H](CCCNC(=N)N)C(=O)N[C@@H](CO)C(=O)N1CCC[C@H]1C(=O)O)[C@@H](C)CC)[C@@H](C)CC)[C@@H](C)O)[C@@H](C)CC)[C@@H](C)CC)[C@@H](C)O)[C@@H](C)CC)C(=O)N[C@@H](Cc1ccccc1)C(=O)N[C@@H](CCCNC(=N)N)C(=O)N[C@@H](CO)C(=O)N1CCC[C@H]1C(=O)O,MDA-MB-231 co-cultured with PBMC,annexin V/PI flow cytometry,,"10 µg/mL, 4 to 6 days",,apoptotic tumour cells,45.9 ± 30.6%
O=C(N/N=C/c1ccccc1O)c1ccncc1,human erythrocytes,"iron chelator, calcein dequenching",,100 µM,,labile iron pool concentration,2.93 ± 0.44 µM
COc1cccc2c1C(=O)c1c(O)c3c(c(O)c1C2=O)C[C@@](O)(C(=O)CO)C[C@@H]3O[C@H]1C[C@H](N)[C@H](O)[C@H](C)O1,HepG2,"real-time PCR, measured: topoisomerase II",,"0.1 µM, 8 h, unit not given",reference: untreated,mRNA level,0.47 ± 0.08
NCC[C@H](NC(=O)[C@H](Cc1ccc(F)c(F)c1)NC(=O)Nc1ccc2c(CN3CCCC3)cn(Cc3c(Cl)cccc3Cl)c2c1)C(=O)NCc1ccccc1,human platelets,"platelet aggregation, antagonist",,"3 µM, together with: thrombin",reference: vehicle,shift of thrombin concentration-response,2 fold
Cc1cc(-c2ccccc2)c2c(n1)C1(CCCCC1)NC2=O,human erythrocytes,hypotonicity-induced hemolysis,,"400 µg/mL, 1 h",,inhibition,79.4%
CSTSCG,rabbit smooth muscle cells,,peptide,"2 µg coated per well, 30 to 60 min",reference: thrombospondin-coated wells,adherent cells,22%
CCn1c2ccccc2c2cc(C3CC(c4cc5ccccc5oc4=O)=NN3C(N)=O)ccc21 (centres unmarked),NCI-H520,propidium iodide staining,,"IC50, 24 h",,cells in G0/G1 phase,59.8%
CNCCCN1c2ccccc2CCc2ccccc21,mouse pheochromocytoma MPC cells,,,"1 µM, 30 min preincubation, together with: 0.024 MBq/mL [18F]-dopamine 10 min",reference: untreated,[18F]-dopamine uptake,14.3%
N.N.O=C([O-])C1(C(=O)[O-])CCC1.[Pt+2],A2780/CP70 (platinum-resistant),,,"52.8 µM, 72 h",,viability decrease,30%
VCTGSC,rabbit smooth muscle cells,,peptide,"2 µg coated per well, 30 to 60 min",reference: thrombospondin-coated wells,adherent cells,17%
Cc1ccc(C(=O)NCc2ccsc2)cc1C#Cc1cn(C(C)C)c2ncnc(N)c12,"A-431, EGFR amplified",,,,,GI50,> 1 µM
C[C@H](N)C(N)=O,human eosinophils,,,"10 to 6 M, 20 min pretreatment, 37 °C, cells washed before stimulus, together with: valyl-tetrapeptide",reference: control,eosinophil chemotaxis,86.1%
COc1ccc(-c2ccc(-c3ccc(C(=N)N)nc3)s2)cc1Cl,HepG2,"real-time PCR, measured: TXNRD1",,"0.1 µM, 8 h, unit not given",reference: untreated,mRNA level,1.29 ± 0.13
C[C@H](NC(=O)Cc1cc(F)cc(F)c1)C(=O)N[C@H](C(=O)OC(C)(C)C)c1ccccc1,HPB-ALL,"qPCR, measured: c-MYC",,"30 µM, 16 h, 37 °C",reference: untreated,mRNA level,decreased
O=C1CCC(=O)C2(CCCCC2)N1,human erythrocytes,hypotonicity-induced hemolysis,,"200 µg/mL, 1 h",,inhibition,61.3%
Cc1cn(CC(=O)N(CCNC(=O)COCCOCCNC(=O)COCCOCCNC(=O)CN2CCN(CC(=O)O)CCN(CC(=O)O)CCN(CC(=O)O)CC2)CC(=O)NCCN(CC(=O)NCCN(CC(=O)NCCN(CC(=O)NCCN(CC(=O)NCCN(CC(=O)NCCN(CC(=O)NCCN(CC(=O)NCCN(CC(=O)NCCN(CC(N)=O)C(=O)Cn2cnc3c(N)ncnc32)C(=O)Cn2cnc3c(N)ncnc32)C(=O)Cn2cnc3c(=O)[nH]c(N)nc32)C(=O)Cn2cnc3c(N)ncnc32)C(=O)Cn2ccc(N)nc2=O)C(=O)Cn2cnc3c(=O)[nH]c(N)nc32)C(=O)Cn2cc(C)c(=O)[nH]c2=O)C(=O)Cn2cnc3c(=O)[nH]c(N)nc32)C(=O)Cn2cnc3c(N)ncnc32)c(=O)[nH]c1=O [lutetium-177 labelled],K1,gamma counting,,6 h,reference: added probe,peak cellular uptake,8.59 ± 0.62%
O=C1/C(=C/c2ccc(O)c(O)c2)Oc2cc(O)ccc21,MRC-5,H2O2-induced intracellular ROS,,"concentration not given, 24 h pretreatment, together with: H2O2 5 mM for 15 min",reference: untreated H2O2-exposed cells,fold decrease in ROS,1.67
O=C1NC2(CCCCC2)c2[nH]c(=S)nc(-c3ccccc3)c21,human erythrocytes,hypotonicity-induced hemolysis,,"800 µg/mL, 1 h",,inhibition,85.1%
Cn1cc(Nc2nccc(-c3ccc4c(c3)CN(C3COC3)CC[C@H]4NC(=O)c3cn(C(C)(C)C)nn3)n2)cn1,human B cells,measured: stimulation-induced genes,,"100 nM, 64 h, together with: anti-IgM",,inhibition of gene upregulation,98%
COc1ccc2c(c1)c(CC(=O)O)c(C)n2C(=O)c1ccc(Cl)cc1,human erythrocytes,hypotonicity-induced hemolysis,,"200 µg/mL, 1 h",,inhibition,90%
RBRBRBRBRBRBRBRBB (PMO conjugate),HeLa pLuc705 cells,splice correction,"peptide, OptiMEM 10% FBS","1 to 5 µM, 24 h, L-Arg to D-Arg replacement",,luciferase activity change,no effect
C#CCCC1(CCC(=O)N[C@@H](CC(C)C)C(=O)Nc2ccc3ccccc3c2)N=N1,differentiating preadipocytes and MSCs,"adipogenic marker expression, inducer, measured: PPARγ, FABP4, CD36",,,,effective concentration,≤ 10 µM
AIAEGDSHVLKEGAY / MEIFDVQGHVFGGKIFRVVDLGSHNVA (oligomer),human T cells,"flow cytometry, ThT label",peptide,"5 µM, 1 h",,T cell association,37 to 41%
COc1cc(Cc2nnc3sc(/C=C/c4ccc(F)cc4)nn23)c(S(=O)(=O)N(C)C)cc1OC,MRC5 normal lung fibroblasts,MTT,,48 h,,TGI,> 100 µM
COC(=O)[C@H]1[C@H]2C[C@@H]3c4[nH]c5cc(OC)ccc5c4CCN3C[C@H]2C[C@@H](OC(=O)c2cc(OC)c(OC)c(OC)c2)[C@@H]1OC,mouse pheochromocytoma MPC cells,,,"10 µM, 30 min preincubation, together with: 0.029 MBq/mL [18F]-DOPA 120 min",reference: control,[18F]-DOPA retention,11.8%
CC[C@H](Nc1ncnc2[nH]cnc12)c1nc2cccc(F)c2c(=O)n1-c1ccccc1,primary CLL cells,"AKT phosphorylation, inhibitor",,"30 min, together with: anti-IgM",to unstimulated level,minimum effective concentration,≥ 300 nM
O=C(/C=C/N1C[C@H]2C[C@@H]1CN2c1ccccn1)c1ccccc1O,C3H10T1/2,"adipocyte differentiation, Oil Red O staining",,,,effective concentration,1 µM
O=C1NC2(CCCCC2)c2nc3c(c(-c4ccccc4)c21)CCCC3,human erythrocytes,hypotonicity-induced hemolysis,,"200 µg/mL, 1 h",,inhibition,79.2%
O=C(CCc1cc(C(=O)NO)no1)Nc1nc(-c2ccccc2)cs1,L3.6pl,"cell growth or viability, MTS",,72 h,,GI50,0.7 µM
COc1cc(O)c2c(=O)c(O)c(-c3ccc(O)c(O)c3)oc2c1,BV-2,"NO release, Griess",,"24 h, together with: LPS 10 µg/mL + MLA 10 µM",,IC50,33.1 µM
NC1=NC(=S)NC12CCCCC2,human erythrocytes,hypotonicity-induced hemolysis,,"600 µg/mL, 1 h",,inhibition,94.6%
CCCCCCCCCCCCCCCCCCOc1ccccc1CC(=O)OCC[N+](C)(C)C,leukaemia cells,,,range over four lines,,GI50,< 3 µM
galanin,rat sciatic nerve fibroblasts,radioimmunoassay,,"concentration not given, 2 min, together with: 200 µM IBMX",,cAMP level,no effect
CCCCCCCCCCCCCCCCCCOCC(COP(=O)([O-])OCC[N+](C)(C)C)OC (centres unmarked),nine NSCLC cell lines,,,10 µM,,mean growth inhibition,28%
COc1cc2c(cc1Cc1cccc(Cl)c1F)c(=O)c(C(=O)O)cn2[C@H](CO)C(C)C,human neural progenitor cells,,,concentration not given,reference: DMSO,classification accuracy,< 100%

# Repeated from above:
Molecule,cell line,test,test system,setting,scale,endpoint,value
N.N.O=C([O-])C1(C(=O)[O-])CCC1.[Pt+2],A2780/CP70 (platinum-resistant),,,"52.8 µM, 72 h",,viability decrease,30%
VCTGSC,rabbit smooth muscle cells,,peptide,"2 µg coated per well, 30 to 60 min",reference: thrombospondin-coated wells,adherent cells,17%
